Results gathered from unrelated publications.
Numbers after ± are the reported error.

Compound | target or system | test | system | conditions | scale | endpoint | value
CC[C@H](C)[C@H](NC(=O)[C@H](Cc1ccccc1)NC(=O)[C@@H](NC(=O)[C@@H](NC(=O)[C@H](CC(C)C)NC(=O)[C@H](CCCCN)NC(=O)[C@@H](N)CCCCN)[C@@H](C)CC)[C@@H](C)O)C(=O)N[C@@H](CC(C)C)C(=O)N[C@@H](CCCCN)C(=O)N[C@@H](CCCCN)C(=O)N[C@H](C(=O)N[C@@H](CCCNC(=N)N)C(=O)N[C@@H](CCC(=O)O)C(=O)N[C@@H](CCCCN)C(=O)N[C@@H](CCCCN)C(=O)N[C@@H](CCCCN)C(=O)N[C@@H](CCC(=O)O)C(=O)N[C@@H](CS)C(=O)N[C@@H](CC(C)C)C(=O)N[C@H](C(=O)O)C(C)C)[C@@H](C)O | voltage-gated sodium channel | resurgent sodium current, kinetic model fit | mouse CA3 neurons | 200 µM, membrane potential -10 mV |  | rate constant kOB | 370 s⁻¹
Cc1cc(C)nc(NC(=S)N2CCN(Cc3ccc(C(F)(F)F)cc3)CC2)c1 | panel of other dehydrogenases | enzyme activity |  | concentration not given |  | inhibition | inactive
CSc1nn(-c2ccccc2)c(NC(=O)/C(C#N)=C(/Nc2ccc(C)cc2)Nc2c(C)n(C)n(-c3ccccc3)c2=O)c1C#N | COX-1 and COX-2, sheep | enzyme activity, inhibitor |  |  | relative to: IC50 COX-1 over IC50 COX-2 | selectivity ratio | 181
O=C(c1ccc(F)cc1)N1CCCC(c2nc(-c3ccncc3)no2)C1 (stereo not shown) | mGluR5 | calcium fluorescence, positive allosteric modulator | mGluR5-expressing cells | together with: glutamate EC20 | relative to: maximal glutamate response | Emax | 93 ± 5%
CC[C@H](C)[C@H](NC(=O)[C@H](Cc1ccccc1)NC(=O)[C@@H](NC(=O)[C@@H](NC(=O)[C@H](CC(C)C)NC(=O)[C@H](CCCCN)NC(=O)[C@@H](N)CCCCN)[C@@H](C)CC)[C@@H](C)O)C(=O)N[C@@H](CC(C)C)C(=O)N[C@@H](CCCNC(=N)N)C(=O)N[C@@H](CCCNC(=N)N)C(=O)N[C@H](C(=O)N[C@@H](CCCNC(=N)N)C(=O)N[C@@H](CCC(=O)O)C(=O)N[C@@H](CCCCN)C(=O)N[C@@H](CCCCN)C(=O)N[C@@H](CCCCN)C(=O)N[C@@H](CCC(=O)O)C(=O)N[C@@H](CS)C(=O)N[C@@H](CC(C)C)C(=O)N[C@H](C(=O)O)C(C)C)[C@@H](C)O | voltage-gated sodium channel | resurgent sodium current, kinetic model fit | mouse CA3 neurons | 200 µM, membrane potential -30 mV |  | rate constant kOB | 265 s⁻¹
Cc1ccc(-n2nc(C3CC3)nc2C2CCCN(C(N)=O)C2)cc1C (stereo not shown) | recombinant aromatase CYP19 | absorption spectroscopy |  | 100 µM, no androstenedione | relative to: 416 nm | Soret peak red shift | 4 nm
O=C(c1ccc(F)cc1)N1CCCC(c2nc(-c3ccccn3)no2)C1 (stereo not shown) | mGluR5 | calcium fluorescence, positive allosteric modulator | mGluR5-expressing cells | together with: glutamate EC20 |  | EC50 | 348 ± 70 nM
CNC(=O)C1CCN(c2cc(C)c(F)cc2NC(=O)c2ccc(-c3cc(O)ccc3C)c(C)c2)CC1 | human EPHA2/EPHA4 | phosphorylation, inhibitor, Western blot | 12Z | 15 min pretreatment, together with: EFNA5 0.5 µg/mL | lowest concentration | significant inhibitory concentration | 1 µM
CCN(CC)CCSC(=S)N1CCN(C(=O)/C=C/c2coc3ccc(OC)cc3c2=O)CC1 | tomato spotted wilt virus | viral infection, half-leaf method | Nicotiana glutinosa | 500 µg/mL |  | curative effect | 58.5 ± 1.6%
CC[C@H](C)[C@H](NC(=O)[C@H](CC(C)C)NC(=O)[C@H](CCCCN)NC(=O)[C@@H](N)CCCCN)C(=O)N[C@H](C(=O)N[C@@H](Cc1ccccc1)C(=O)N[C@H](C(=O)N1CCC[C@H]1C(=O)N[C@@H](CCCCN)C(=O)N[C@@H](CCCCN)C(=O)N[C@H](C(=O)N[C@@H](CCCNC(=N)N)C(=O)N[C@@H](CCC(=O)O)C(=O)N[C@@H](CCCCN)C(=O)N[C@@H](CCCCN)C(=O)N[C@@H](CCCCN)C(=O)N[C@@H](CCC(=O)O)C(=O)N[C@@H](CS)C(=O)N[C@@H](CC(C)C)C(=O)N[C@H](C(=O)O)C(C)C)[C@@H](C)O)[C@@H](C)CC)[C@@H](C)O | voltage-gated sodium channel | resurgent sodium current, kinetic model fit | mouse CA3 neurons | 200 µM, membrane potential -10 mV |  | rate constant kIO | 21 s⁻¹
Cc1cc(/C=C/c2ccc(O)c(O)c2)[nH]n1 | glutathione peroxidase | enzyme activity | MCF7 | 25 µM, 48 h |  | inhibition | 31%
CCCCCC(C)NCC(=O)O (stereo not shown) | DNA | binding, UV-vis absorption titration |  |  |  | midpoint concentration | 794 µM
Cc1sc2ncn(CC(=O)N3CCCC3)c(=O)c2c1-c1cccc(Br)c1 | NMDA receptor, mouse | single-channel current, outside-out patch | cortical neurons | concentration not given, holding -80 mV, together with: Ca2+ 1.25 mM |  | unitary current amplitude 1 | -3.45 ± 0.59 pA
Cn1c(=O)oc2ccc(-c3ccc(CC(C#N)NC(=O)C4CNCCCO4)c(F)c3)cc21 (stereo not shown) | neutrophil elastase (human) | neutrophil-normalised activity | human, whole blood | 40 mg once daily, day 19 |  | reduction | 61.6%
COc1cc(CCC(C)=O)ccc1O | mAb 2-LD2 | antibody binding, indirect competitive ELISA |  | together with: coating antigen hapten 1-OVA |  | IC50 | > 4 µg/mL
CCN(CC)CCSC(=S)N1CCN(C(=O)/C=C/c2coc3ccc(F)cc3c2=O)CC1 | tomato spotted wilt virus | virus inactivation, half-leaf method | Nicotiana glutinosa | tested 31.25 to 500 µg/mL |  | EC50 | 104 ± 8.4 µg/mL

Compound | target or system | test | system | conditions | scale | endpoint | value
CCCNCC(=O)O | DNA | binding, UV-vis absorption titration |  | concentration not given |  | hypochromicity | 45.4%
C=CC(=O)Oc1ccc(Cl)cc1C(=O)Nc1ccc([N+](=O)[O-])cc1Cl | androgen receptor | Western blot | CWR22Rv1 | 1 µM, 16 h |  | AR protein level | inhibited
COc1ccc(N2C(=O)C=CC2=O)cc1 | DPP3 (Candida albicans) | GFP fluorescence | Candida albicans, BWP17 DPP3-GFP | 2 µg/mL, 4 h | relative to: untreated | DPP3 expression | 2.55 fold
CCCCCCCCCCCCCC(=O)N[C@@H](CO)C(=O)N[C@H](C(=O)N[C@@H](Cc1ccc(O)cc1)C(=O)N[C@@H](CCCNC(=N)N)C(=O)N[C@@H](CCCNC(=N)N)C(=O)NCC(=O)N[C@@H](C)C(=O)N[C@@H](CCCNC(=N)N)C(=O)N[C@@H](CCCNC(=N)N)C(=O)N[C@@H](Cc1c[nH]c2ccccc12)C(=O)N[C@@H](CCCNC(=N)N)C(=O)N[C@@H](CCCCN)C(=O)N[C@@H](CC(C)C)C(=O)O)[C@@H](C)CC | PKMζ | item: ~180 kDa band | 293T overexpressing PKMζ | 100 µM |  | substrate phosphorylation | no effect
Cc1cc(N)c2cc(NC(=O)Nc3ccc4nc(C)cc(N)c4c3)ccc2n1 | factor Xa | anticoagulant neutralization, chromogenic |  | together with: enoxaparin 0.2 IU/mL, human antithrombin III |  | IC50 | 6400 ± 400 nM
CC[C@H](C)[C@H](NC(=O)[C@H](CC(C)C)NC(=O)[C@@H](NC(=O)[C@@H](NC(=O)[C@H](CC(C)C)NC(=O)[C@H](CCCCN)NC(=O)[C@@H](N)CCCCN)[C@@H](C)CC)[C@@H](C)O)C(=O)N[C@@H](Cc1ccccc1)C(=O)N[C@@H](CCCCN)C(=O)N[C@@H](CCCCN)C(=O)N[C@H](C(=O)N[C@@H](CCCNC(=N)N)C(=O)N[C@@H](CCC(=O)O)C(=O)N[C@@H](CCCCN)C(=O)N[C@@H](CCCCN)C(=O)N[C@@H](CCCCN)C(=O)N[C@@H](CCC(=O)O)C(=O)N[C@@H](CS)C(=O)N[C@@H](CC(C)C)C(=O)N[C@H](C(=O)O)C(C)C)[C@@H](C)O | voltage-gated sodium channel | resurgent sodium current, kinetic model fit | mouse CA3 neurons | 200 µM, membrane potential -30 mV |  | rate constant kOB | 64 s⁻¹
COc1cc(C(C)C)c(Oc2cnc(N)nc2N)cc1I | chicken P2X3 A196G | ion current, inhibitor, patch clamp | HEK293 transfected | 10 µM, together with: ATP 10 µM |  | ATP-evoked current | inhibited
CCOCCNC(=O)N1CCC[C@H](c2n[nH]c(-c3ccccc3)n2)C1 | recombinant aromatase CYP19 | absorption spectroscopy |  | 100 µM, no androstenedione | relative to: 416 nm | Soret peak red shift | 2 nm
O=C(c1ccc(F)cc1)N1CCCC(c2nc(-c3cccs3)no2)C1 (stereo not shown) | mGluR5 | calcium fluorescence, positive allosteric modulator | mGluR5-expressing cells | together with: glutamate EC20 |  | EC50 | 170 ± 28 nM
CC(/C=C/C(=O)NO)=C\[C@@H](C)C(=O)c1ccc(N(C)C)cc1 | PTPN1, PTPN12, PTPRA, LMWPTP, human | phosphatase activity |  | concentration not given |  | inhibition | inactive
O=C(c1ccc(F)cc1)N1CCCC(c2nc(-c3cccnc3)no2)C1 (stereo not shown) | mGluR5 | calcium fluorescence, positive allosteric modulator | mGluR5-expressing cells | together with: glutamate EC20 | relative to: maximal glutamate response | Emax | 82 ± 7%
CCCCC/C=C/C(=O)CCc1ccc(O)c(OC)c1 | mAb 2-LD2 | antibody binding, indirect competitive ELISA |  | together with: coating antigen hapten 3-OVA |  | IC50 | 0.00326 µg/mL
CC1CCC(C(C)C)C(OC(=O)Cn2c(-c3ccc(OC(=O)CCCCC4SCC5NC(=O)NC54)cc3)[n+](C)c3ccccc32)C1 (stereo not shown) | mouse OxPhos proteins | biotin pull-down | HTS cells |  |  | time to protein binding | ≤ 10 min
CC[C@H](C)[C@H](NC(=O)[C@H](C)NC(=O)[C@@H](NC(=O)[C@@H](NC(=O)[C@H](CC(C)C)NC(=O)[C@H](CCCCN)NC(=O)[C@@H](N)CCCCN)[C@@H](C)CC)[C@@H](C)O)C(=O)N[C@@H](CC(C)C)C(=O)N[C@@H](CCCCN)C(=O)N[C@@H](CCCCN)C(=O)N[C@H](C(=O)N[C@@H](CCCNC(=N)N)C(=O)N[C@@H](CCC(=O)O)C(=O)N[C@@H](CCCCN)C(=O)N[C@@H](CCCCN)C(=O)N[C@@H](CCCCN)C(=O)N[C@@H](CCC(=O)O)C(=O)N[C@@H](CS)C(=O)N[C@@H](CC(C)C)C(=O)N[C@H](C(=O)O)C(C)C)[C@@H](C)O | voltage-gated sodium channel | resurgent sodium current, kinetic model fit | mouse CA3 neurons | 200 µM, membrane potential -30 mV |  | rate constant kIO | 10 s⁻¹
C[C@]12CC[C@@H]3c4ccc(OCC(=O)N[C@@H](CCCCNC(=O)CN5CCN(CC(=O)[O-])CCN(CC(=O)[O-])CCN(CC(=O)[O-])CC5)C(=O)O)cc4CC[C@H]3[C@@H]1CCC2=O.[68Ga+3] | estrogen receptor |  | nude mice, MCF7 xenograft, uterus | dose not given, 2.5 h post-injection, together with: estradiol 200 µg co-injected | relative to: unblocked | uptake reduction by blocking | ~46%

A few entries again:
Compound | target or system | test | system | conditions | scale | endpoint | value
COc1cc(C(C)C)c(Oc2cnc(N)nc2N)cc1I | chicken P2X3 A196G | ion current, inhibitor, patch clamp | HEK293 transfected | 10 µM, together with: ATP 10 µM |  | ATP-evoked current | inhibited
Cc1cc(C)nc(NC(=S)N2CCN(Cc3ccc(C(F)(F)F)cc3)CC2)c1 | panel of other dehydrogenases | enzyme activity |  | concentration not given |  | inhibition | inactive
O=C(c1ccc(F)cc1)N1CCCC(c2nc(-c3cccnc3)no2)C1 (stereo not shown) | mGluR5 | calcium fluorescence, positive allosteric modulator | mGluR5-expressing cells | together with: glutamate EC20 | relative to: maximal glutamate response | Emax | 82 ± 7%
O=C(c1ccc(F)cc1)N1CCCC(c2nc(-c3ccncc3)no2)C1 (stereo not shown) | mGluR5 | calcium fluorescence, positive allosteric modulator | mGluR5-expressing cells | together with: glutamate EC20 | relative to: maximal glutamate response | Emax | 93 ± 5%
